{"data": "Assay results pooled from the literature", "note": "Every numbered part comes from another study and shows a few of its results, in no order. Changes are numbered by the printed parent chain.", "chain of UniProt P41143 (whole entry, looked up)": "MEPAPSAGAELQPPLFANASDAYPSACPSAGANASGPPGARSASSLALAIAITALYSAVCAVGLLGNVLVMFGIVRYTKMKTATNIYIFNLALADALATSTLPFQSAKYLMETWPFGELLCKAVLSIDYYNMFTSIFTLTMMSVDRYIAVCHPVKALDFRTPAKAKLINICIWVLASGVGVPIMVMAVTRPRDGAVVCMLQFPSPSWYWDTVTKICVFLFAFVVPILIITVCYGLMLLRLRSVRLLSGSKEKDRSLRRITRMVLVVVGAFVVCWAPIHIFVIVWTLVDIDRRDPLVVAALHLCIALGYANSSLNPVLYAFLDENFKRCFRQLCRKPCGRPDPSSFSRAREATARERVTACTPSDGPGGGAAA", "chain of UniProt P21709 (whole entry, looked up)": "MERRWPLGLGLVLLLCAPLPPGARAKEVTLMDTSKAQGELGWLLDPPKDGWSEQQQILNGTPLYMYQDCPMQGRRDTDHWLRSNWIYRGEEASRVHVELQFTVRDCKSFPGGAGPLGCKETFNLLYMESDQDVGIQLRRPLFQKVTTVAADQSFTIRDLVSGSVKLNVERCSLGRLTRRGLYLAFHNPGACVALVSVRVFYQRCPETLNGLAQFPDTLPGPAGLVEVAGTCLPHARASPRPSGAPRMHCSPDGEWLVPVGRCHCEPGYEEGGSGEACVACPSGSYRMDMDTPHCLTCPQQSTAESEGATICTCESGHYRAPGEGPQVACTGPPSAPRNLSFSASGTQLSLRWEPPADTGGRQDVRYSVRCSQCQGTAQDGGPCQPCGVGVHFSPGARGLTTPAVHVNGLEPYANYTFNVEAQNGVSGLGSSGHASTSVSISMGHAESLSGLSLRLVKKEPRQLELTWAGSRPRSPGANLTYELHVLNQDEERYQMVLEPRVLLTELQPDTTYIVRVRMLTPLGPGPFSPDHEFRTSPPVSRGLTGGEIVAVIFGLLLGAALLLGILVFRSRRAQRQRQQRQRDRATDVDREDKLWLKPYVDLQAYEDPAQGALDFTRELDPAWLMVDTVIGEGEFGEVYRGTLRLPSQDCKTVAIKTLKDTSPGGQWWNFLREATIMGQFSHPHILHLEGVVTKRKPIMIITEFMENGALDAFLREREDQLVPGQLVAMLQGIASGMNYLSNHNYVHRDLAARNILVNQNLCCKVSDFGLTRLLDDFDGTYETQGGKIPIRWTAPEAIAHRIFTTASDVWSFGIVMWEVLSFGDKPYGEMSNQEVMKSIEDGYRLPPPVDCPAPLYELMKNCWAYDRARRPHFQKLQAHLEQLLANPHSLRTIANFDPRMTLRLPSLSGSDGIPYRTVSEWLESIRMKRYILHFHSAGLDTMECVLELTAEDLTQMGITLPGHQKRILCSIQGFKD", "chain of UniProt P28335 (whole entry, looked up)": "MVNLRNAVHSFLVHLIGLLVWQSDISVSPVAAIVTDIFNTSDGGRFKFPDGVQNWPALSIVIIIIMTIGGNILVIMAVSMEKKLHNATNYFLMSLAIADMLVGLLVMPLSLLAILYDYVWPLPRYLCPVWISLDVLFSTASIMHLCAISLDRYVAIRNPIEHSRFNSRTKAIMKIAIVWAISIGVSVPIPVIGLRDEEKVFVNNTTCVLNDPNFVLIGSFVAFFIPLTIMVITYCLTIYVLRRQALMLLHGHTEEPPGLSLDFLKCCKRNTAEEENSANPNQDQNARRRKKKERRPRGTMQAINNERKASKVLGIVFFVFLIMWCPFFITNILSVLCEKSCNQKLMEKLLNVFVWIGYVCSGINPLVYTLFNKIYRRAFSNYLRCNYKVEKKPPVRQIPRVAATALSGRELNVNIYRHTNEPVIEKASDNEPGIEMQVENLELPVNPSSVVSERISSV", "chain of UniProt P11229 (whole entry, looked up)": "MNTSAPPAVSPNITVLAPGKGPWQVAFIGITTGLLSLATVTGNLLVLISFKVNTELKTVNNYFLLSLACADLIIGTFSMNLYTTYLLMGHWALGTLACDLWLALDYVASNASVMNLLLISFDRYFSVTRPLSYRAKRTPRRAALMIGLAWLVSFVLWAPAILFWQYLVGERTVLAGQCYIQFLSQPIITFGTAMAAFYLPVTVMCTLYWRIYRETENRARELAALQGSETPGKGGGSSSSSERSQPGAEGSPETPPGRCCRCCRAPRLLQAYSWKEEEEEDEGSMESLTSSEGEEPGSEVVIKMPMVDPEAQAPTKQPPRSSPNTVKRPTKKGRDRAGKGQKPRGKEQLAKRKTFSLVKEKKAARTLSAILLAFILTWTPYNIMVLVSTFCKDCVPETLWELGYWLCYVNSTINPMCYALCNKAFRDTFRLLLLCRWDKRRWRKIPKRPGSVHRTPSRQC"}
{"data": "Block 1", "target": "UDP-N-acetylglucosamine--peptide N-acetylglucosaminyltransferase 110 kDa subunit (OGT, Homo sapiens, UniProt O15294)", "read-out": "phage display binding", "method": "phage display panning NGS", "molecule type": "peptide", "notes": "panning round 3", "reference": "OGT-panned over input library", "chain of UniProt O15294 (whole entry, looked up)": "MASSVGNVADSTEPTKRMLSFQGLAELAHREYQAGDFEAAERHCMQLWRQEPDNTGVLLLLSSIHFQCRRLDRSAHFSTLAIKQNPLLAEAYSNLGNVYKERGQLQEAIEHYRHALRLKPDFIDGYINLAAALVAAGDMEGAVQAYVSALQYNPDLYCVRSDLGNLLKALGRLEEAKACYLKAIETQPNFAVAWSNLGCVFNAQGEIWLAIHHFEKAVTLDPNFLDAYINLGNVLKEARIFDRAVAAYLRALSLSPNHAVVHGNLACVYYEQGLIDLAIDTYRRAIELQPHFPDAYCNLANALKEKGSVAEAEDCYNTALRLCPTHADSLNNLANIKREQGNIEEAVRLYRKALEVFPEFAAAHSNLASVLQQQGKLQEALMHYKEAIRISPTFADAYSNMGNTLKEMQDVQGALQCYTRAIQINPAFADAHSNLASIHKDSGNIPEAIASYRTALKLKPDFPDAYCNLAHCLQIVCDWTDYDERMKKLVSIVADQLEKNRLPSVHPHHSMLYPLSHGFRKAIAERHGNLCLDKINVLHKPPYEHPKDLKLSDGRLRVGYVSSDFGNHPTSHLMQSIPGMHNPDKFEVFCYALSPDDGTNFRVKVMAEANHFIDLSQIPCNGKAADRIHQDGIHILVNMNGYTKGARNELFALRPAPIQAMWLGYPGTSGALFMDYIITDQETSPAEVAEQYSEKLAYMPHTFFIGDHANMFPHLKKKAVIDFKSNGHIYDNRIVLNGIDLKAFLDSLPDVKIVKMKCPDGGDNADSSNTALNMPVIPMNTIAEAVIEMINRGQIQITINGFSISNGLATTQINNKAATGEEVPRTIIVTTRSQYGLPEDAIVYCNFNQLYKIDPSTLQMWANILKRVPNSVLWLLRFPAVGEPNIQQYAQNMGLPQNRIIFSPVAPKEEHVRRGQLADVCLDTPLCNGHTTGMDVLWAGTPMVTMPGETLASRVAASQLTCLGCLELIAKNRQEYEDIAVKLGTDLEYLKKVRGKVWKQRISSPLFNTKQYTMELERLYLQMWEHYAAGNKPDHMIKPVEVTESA"}
{"Sequence": "SNKQDLMPAYQIQYG", "fold enrichment": 3.24}
{"Sequence": "YNIYNPAYQIAYKF", "fold enrichment": 2.84}
{"Sequence": "SWMPFYQIEFSQGSS", "fold enrichment": 3.45}
{"Sequence": "TMYEPMYQIKVIAHG", "fold enrichment": 2.91}
{"Sequence": "QQIPSIMPMYQIVTP", "fold enrichment": 2.69}
{"Sequence": "WVLVPPFYQIVPSNR", "fold enrichment": 5.17}
{"Sequence": "YFEPKYEISFKYPHD", "fold enrichment": 2.32}
{"Sequence": "QPTTSFPPKYLITYT", "fold enrichment": 2.91}
{"data": "Block 2", "target": "vanadate, free oxyanion", "method": "microfluidic competitive inhibition", "medium": "in vitro, cell-free expressed", "tested at": "not given", "notes": "derived from inhibition constants, unchanged parent 676 nM", "direction": "lower = stronger binding", "starting sequence": "PafA, mature enzyme, eGFP fusion (Elizabethkingia meningoseptica, UniProt Q9KJX5); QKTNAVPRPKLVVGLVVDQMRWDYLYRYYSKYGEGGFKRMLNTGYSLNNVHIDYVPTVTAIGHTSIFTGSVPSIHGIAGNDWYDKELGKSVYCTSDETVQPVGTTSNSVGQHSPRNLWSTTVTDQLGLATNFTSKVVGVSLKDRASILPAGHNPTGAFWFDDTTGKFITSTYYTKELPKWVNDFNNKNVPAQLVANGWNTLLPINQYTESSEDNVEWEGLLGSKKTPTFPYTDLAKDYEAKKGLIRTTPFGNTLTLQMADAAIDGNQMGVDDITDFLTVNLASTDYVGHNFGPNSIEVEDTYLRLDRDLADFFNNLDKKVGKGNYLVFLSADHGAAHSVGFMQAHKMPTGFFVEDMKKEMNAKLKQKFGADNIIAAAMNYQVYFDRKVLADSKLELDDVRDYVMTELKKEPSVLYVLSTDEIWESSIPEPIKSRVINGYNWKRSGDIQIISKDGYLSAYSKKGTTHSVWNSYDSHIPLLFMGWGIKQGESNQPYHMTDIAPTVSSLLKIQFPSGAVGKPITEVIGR"}
{"Change": "P114G", "oxyanion analog dissociation constant [nM]": 1100}
{"Change": "V403A", "oxyanion analog dissociation constant [nM]": 637}
{"Change": "T226V", "oxyanion analog dissociation constant [nM]": 746}
{"Change": "Y238G", "oxyanion analog dissociation constant [nM]": 607}
{"Change": "F368G", "oxyanion analog dissociation constant [nM]": 553}
{"Change": "N153G", "oxyanion analog dissociation constant [nM]": 590}
{"Change": "Y28G", "oxyanion analog dissociation constant [nM]": 853}
{"Change": "L11V", "oxyanion analog dissociation constant [nM]": 682}
{"data": "Block 3", "SMILES": "CCCCN(CCCC)C(=O)CN1C[C@H](c2cc(OC)c3c(c2)OCO3)[C@@H](C(=O)O)[C@@H]1CC(C)(C)CCC", "read-out": "binding", "method": "radioligand binding", "tested at": "10 µM"}
{"target": "5-hydroxytryptamine receptor 2A (HTR2A, Homo sapiens, UniProt P28223)", "inhibition [%]": 8.83}
{"target": "Delta-type opioid receptor (OPRD1, Homo sapiens, UniProt P41143)", "inhibition [%]": 25.6}
{"target": "5-hydroxytryptamine receptor 2C (HTR2C, Homo sapiens, UniProt P28335)", "inhibition [%]": -18.7}
{"target": "Muscarinic acetylcholine receptor M1 (CHRM1, Homo sapiens, UniProt P11229)", "inhibition [%]": -19.4}
{"data": "Further values, each from its own experiment"}
{"Compound": "C=CCC1(C(C)CCC)C(=O)N=C(S)NC1=O (stereo not shown)", "tested on": "Huh-7", "setting": "10 µM, 24 h", "measurement": "viability", "value": "98.9%"}
{"Compound": "CCn1cnc2c(Nc3cccc(Cl)c3)nc(N[C@H]3CCCC[C@H]3N)nc21", "tested on": "Ephrin type-A receptor 1 (EPHA1, Homo sapiens, UniProt P21709)", "test": "enzyme activity, inhibitor", "setting": "0.5 µM", "how to read": "reference: control", "measurement": "remaining activity", "value": "79.6%"}
{"note": "Excerpt of the above (block 1):"}
{"Sequence": "YNIYNPAYQIAYKF", "fold enrichment": 2.84}
